Assay results gathered from unrelated publications.
“And” joins repeats or separate records; there may be more than shown. ± gives the spread as reported.

With `OC1(C(F)(F)F)CCN(c2nc(Nc3ccnc(C(F)(F)F)c3)nc(-c3cccc(C(F)(F)F)n3)n2)C1` (stereo not shown) the AUC(0-t) was 143 ± 14.3 µg·h/mL (monkey, blood; oral, 10 mg/kg).
`O=C(c1ccccc1)N1C(c2ccc(OCC3CCN(CCCF)C3)cc2)c2ccc(O)cc2CC12CC2` (stereo not shown) has an AUC(0-t) of 2.89 µg·h/mL (C57BL/6J mouse, plasma; oral, 25 mg/kg, group mean).
The AUC(0-t) of `COc1cnc2cccc(N3CCc4c(cc(Cn5ccnc5)cc4-c4cn(C)nc4C(F)(F)F)C3=O)c2c1` is reported as 3.82 µg·h/mL (male CD-1 mouse, plasma; oral, 10 mg/kg).
`O=C1C2CC3CC1CC(C(=O)N1CCN(c4ccc([N+](=O)[O-])c5ncccc45)CC1)(C3)C2` has an AUC(0-t) of 0.0268 µg·h/mL (male ICR mouse, plasma; oral, 5 mg/kg).
`COC(=O)c1ccc(CN2CCCC(CCC(=O)NCc3ccc(C)o3)C2)cc1` (stereo not shown) has a relative translation of 104% (Trypanosoma cruzi; reporter mRNA translation, inhibitor, refers to: capped polyadenylated Renilla luciferase mRNA; cell-free extract; concentration not given; baseline: control RNA).
`Cc1nn(-c2nc3c(F)cc(F)cc3s2)c(O)c1C(c1ccc(C(F)(F)F)cc1)c1c(C)nn(-c2nc3c(F)cc(F)cc3s2)c1O` gave an AUC(0-t) of 381 µg·h/mL and 361 µg·h/mL and 353 µg·h/mL (ICR mouse, plasma; oral, 50 mg/kg).
`Cc1cc(NC(=O)[C@H](O)c2cc(F)cc(F)c2)ccc1-c1cnc(N)c(C(=O)NC(C)C)c1` gave an AUC(0-t) of 118 µg·h/mL (female nude mouse, plasma; oral, 100 mg/kg, single dose).
`Cc1ccc(OCC(=O)N(Cc2cccs2)c2ccn[nH]2)cc1` gave an AUC(0-t) of 0.391 µM·h (male CD-1 mouse, plasma; oral, 30 mg/kg).
`CC(=O)Nc1nc(-c2cccc3ccccc23)cs1` gave a relative translation of 104% (Trypanosoma cruzi; reporter mRNA translation, inhibitor, refers to: capped polyadenylated Renilla luciferase mRNA; cell-free extract; concentration not given; baseline: control RNA).
With `C=C(NC(=O)c1csc(-c2nc3c(cc2O)-c2nc(cs2)C(=O)NC(C(C)O)C(=O)NC(=C(C)OC)c2nc(cs2)C(=O)NC2c4nc(cs4)C(=O)NC(COC(=O)c4c5c6c(cccc6n4O)COC(=O)C(OC4CC(C)(O)C(N(C)C)C(C)O4)C2OC5)c2nc-3cs2)n1)C(N)=O` (stereo not shown) the AUC(0-t) was 0.754 µg·h/mL (ICR mice, Streptococcus pneumoniae ATCC 49169 infected, immunocompromised, blood; intravenous, 8 mg/kg/day once daily).
